{"data": "Measurements pooled from the literature", "4'-phosphopantetheinyl transferase PptT": "4'-phosphopantetheinyl transferase PptT (Mycobacterium tuberculosis, UniProt O33336)", "CNR2 L182I": "Cannabinoid receptor 2 (CNR2, Homo sapiens, UniProt P34972, L182I)", "gpmI": "2,3-bisphosphoglycerate-independent phosphoglycerate mutase (gpmI, Mycoplasma pneumoniae, UniProt P75167)", "2,3-bisphosphoglycerate-independent phosphoglycerate mutase": "2,3-bisphosphoglycerate-independent phosphoglycerate mutase (Wuchereria bancrofti, UniProt B1P0R4)", "note": "Lines come from different studies, so protocols differ. Numbers after ± are the reported error.", "UniProt O33336, sequence (whole entry, looked up)": "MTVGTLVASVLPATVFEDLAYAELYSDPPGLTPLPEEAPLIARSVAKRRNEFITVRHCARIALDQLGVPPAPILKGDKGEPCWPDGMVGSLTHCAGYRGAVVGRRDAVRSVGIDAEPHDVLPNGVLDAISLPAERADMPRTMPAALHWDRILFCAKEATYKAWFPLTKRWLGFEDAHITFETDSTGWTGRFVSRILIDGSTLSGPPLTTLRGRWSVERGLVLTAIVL", "UniProt P75167, sequence (whole entry, looked up)": "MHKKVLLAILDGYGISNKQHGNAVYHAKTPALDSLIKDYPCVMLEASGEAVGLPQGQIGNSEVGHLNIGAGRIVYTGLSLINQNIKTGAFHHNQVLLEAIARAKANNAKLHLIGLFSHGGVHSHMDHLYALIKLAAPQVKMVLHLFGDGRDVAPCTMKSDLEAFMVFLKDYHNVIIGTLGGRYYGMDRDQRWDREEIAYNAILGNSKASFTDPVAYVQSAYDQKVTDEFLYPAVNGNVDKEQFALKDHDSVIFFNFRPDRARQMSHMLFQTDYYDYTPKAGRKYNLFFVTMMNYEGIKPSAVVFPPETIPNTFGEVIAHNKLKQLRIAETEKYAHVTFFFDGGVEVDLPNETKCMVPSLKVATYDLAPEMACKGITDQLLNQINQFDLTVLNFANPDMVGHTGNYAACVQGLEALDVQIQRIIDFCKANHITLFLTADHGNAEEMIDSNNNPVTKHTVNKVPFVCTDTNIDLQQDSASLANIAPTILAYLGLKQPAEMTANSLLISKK", "UniProt P34972, sequence (whole entry, unmodified, looked up)": "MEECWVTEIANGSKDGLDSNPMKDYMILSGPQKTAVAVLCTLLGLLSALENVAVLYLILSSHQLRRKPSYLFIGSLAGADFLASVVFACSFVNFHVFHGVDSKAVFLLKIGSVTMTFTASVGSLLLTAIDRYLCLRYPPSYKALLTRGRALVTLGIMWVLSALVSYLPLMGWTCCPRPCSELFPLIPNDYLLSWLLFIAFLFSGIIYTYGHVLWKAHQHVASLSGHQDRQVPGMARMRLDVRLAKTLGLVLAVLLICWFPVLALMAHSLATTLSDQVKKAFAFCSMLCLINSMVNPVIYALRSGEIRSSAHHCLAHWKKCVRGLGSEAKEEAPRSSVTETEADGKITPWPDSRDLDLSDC", "UniProt P01902, sequence (whole entry, looked up)": "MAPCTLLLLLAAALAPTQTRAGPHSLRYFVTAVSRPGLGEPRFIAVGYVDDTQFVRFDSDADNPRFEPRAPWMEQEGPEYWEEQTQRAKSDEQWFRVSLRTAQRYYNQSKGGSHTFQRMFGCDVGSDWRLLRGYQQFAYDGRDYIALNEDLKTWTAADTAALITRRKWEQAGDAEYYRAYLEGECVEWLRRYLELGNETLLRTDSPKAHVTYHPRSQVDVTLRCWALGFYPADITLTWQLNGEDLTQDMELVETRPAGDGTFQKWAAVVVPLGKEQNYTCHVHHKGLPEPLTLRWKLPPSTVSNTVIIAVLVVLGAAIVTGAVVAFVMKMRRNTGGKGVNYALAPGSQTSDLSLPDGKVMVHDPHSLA", "UniProt P29323, sequence (whole entry, looked up)": "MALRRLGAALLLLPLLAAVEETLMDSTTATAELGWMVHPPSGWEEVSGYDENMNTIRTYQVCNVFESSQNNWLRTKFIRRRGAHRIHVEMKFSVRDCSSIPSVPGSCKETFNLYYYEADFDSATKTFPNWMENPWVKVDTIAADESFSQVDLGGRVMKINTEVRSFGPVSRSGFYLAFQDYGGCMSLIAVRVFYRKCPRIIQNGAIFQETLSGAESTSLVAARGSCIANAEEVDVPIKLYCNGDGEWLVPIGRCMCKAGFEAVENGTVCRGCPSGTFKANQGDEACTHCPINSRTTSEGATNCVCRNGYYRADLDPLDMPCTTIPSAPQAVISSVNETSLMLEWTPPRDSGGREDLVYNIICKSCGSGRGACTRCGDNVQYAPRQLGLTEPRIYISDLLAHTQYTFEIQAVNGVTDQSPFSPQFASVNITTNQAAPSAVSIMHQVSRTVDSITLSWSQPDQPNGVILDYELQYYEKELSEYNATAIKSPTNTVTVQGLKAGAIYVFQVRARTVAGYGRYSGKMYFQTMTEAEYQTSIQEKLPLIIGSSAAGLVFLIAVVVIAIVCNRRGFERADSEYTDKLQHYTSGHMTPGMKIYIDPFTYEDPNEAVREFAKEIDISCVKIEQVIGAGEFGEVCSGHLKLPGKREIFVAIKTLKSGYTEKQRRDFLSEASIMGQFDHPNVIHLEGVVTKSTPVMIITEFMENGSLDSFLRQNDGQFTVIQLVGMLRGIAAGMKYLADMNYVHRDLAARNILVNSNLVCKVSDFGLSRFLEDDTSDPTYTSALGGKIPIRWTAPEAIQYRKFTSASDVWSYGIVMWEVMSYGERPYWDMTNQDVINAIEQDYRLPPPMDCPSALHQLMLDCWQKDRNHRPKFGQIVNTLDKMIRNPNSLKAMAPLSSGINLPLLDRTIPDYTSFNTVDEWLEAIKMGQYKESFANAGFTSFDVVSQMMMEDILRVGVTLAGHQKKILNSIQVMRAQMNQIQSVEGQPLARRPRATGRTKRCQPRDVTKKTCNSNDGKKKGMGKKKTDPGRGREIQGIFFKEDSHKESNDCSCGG", "UniProt P41149, sequence (whole entry, looked up)": "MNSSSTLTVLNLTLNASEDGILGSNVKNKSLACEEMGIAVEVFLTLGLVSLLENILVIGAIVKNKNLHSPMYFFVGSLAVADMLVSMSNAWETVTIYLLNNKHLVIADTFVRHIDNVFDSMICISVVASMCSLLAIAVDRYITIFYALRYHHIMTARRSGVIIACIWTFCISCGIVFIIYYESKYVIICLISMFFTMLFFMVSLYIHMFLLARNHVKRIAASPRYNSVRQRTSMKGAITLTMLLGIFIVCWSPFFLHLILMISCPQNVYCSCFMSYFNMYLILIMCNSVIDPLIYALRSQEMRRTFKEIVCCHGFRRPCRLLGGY", "UniProt P33261, sequence (whole entry, looked up)": "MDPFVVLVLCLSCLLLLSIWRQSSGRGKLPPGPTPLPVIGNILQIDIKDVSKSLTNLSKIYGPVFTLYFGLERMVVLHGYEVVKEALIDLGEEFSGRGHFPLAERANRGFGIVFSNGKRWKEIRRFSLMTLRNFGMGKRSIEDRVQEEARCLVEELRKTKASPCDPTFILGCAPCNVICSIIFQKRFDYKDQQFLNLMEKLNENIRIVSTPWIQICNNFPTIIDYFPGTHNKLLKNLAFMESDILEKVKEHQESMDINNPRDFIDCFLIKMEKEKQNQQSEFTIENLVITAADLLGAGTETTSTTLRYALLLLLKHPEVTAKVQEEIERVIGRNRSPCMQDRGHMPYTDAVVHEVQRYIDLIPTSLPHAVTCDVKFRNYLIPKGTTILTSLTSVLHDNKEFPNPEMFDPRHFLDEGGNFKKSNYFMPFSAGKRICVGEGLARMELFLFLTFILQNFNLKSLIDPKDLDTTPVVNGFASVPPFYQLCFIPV"}
{"Structure (SMILES)": "CC1=NN(c2ccc(C(=O)O)cc2)C(=O)C1=Cc1ccc(-c2cc(C)c(C)cc2[N+](=O)[O-])o1", "tested on": "4'-phosphopantetheinyl transferase PptT", "assay": "enzyme activity, inhibitor, fluorescence polarization", "setting": "enzyme 100 nM", "measurement": "IC50", "value": "3400 nM"}
{"Structure (SMILES)": "CCCCCn1cc(C(=O)c2ccc3c(c2)CC(C)(C)C3)c2ccccc21", "tested on": "CNR2 L182I", "assay": "G protein activation, agonist, BRET", "measurement": "EC50", "value": "44.7 nM"}
{"Structure (SMILES)": "CNC(=O)C1CCN(c2ccccc2NC(=O)c2ccc(-c3cc(O)ccc3C)c(C)n2)CC1", "tested on": "EPHB2 (Homo sapiens, UniProt P29323)", "assay": "cell-free assay, TR-FRET", "measurement": "Ki", "value": "0.2 nM"}
{"Structure (SMILES)": "CC(=O)N[C@@H](CCCNC(=N)N)C(=O)N[C@@H](CCCNC(=N)N)C(=O)N[C@H](Cc1ccc(I)cc1)C(=O)N[C@H](C(N)=O)[C@@H](c1ccccc1)c1c[nH]c2ccccc12", "tested on": "Melanocortin receptor 5 (Mus musculus, UniProt P41149)", "assay": "cAMP, agonist, AlphaScreen", "measurement": "EC50", "value": "600 nM"}
{"Structure (SMILES)": "CC[C@H](C)[C@H](NC(=O)[C@@H]1CCCN1C(=O)[C@H](CC(C)C)NC(=O)[C@@H](NC(=O)[C@H](CCSC)NC(=O)[C@H](CC(N)=O)NC(=O)[C@@H](NC(=O)[C@H](Cc1ccc(O)cc1)NC(=O)[C@@H](N)Cc1c[nH]cn1)[C@@H](C)CC)[C@@H](C)CC)C(=O)O", "tested on": "H-2 class I histocompatibility antigen, K-D alpha chain, 29 (H2-K1, Mus musculus, UniProt P01902)", "assay": "peptide binding to H-2K, competitor", "setting": "with: radiolabelled standard peptide", "measurement": "IC50", "value": "0.23 nM"}
{"Structure (SMILES)": "CCCCCn1cc(C(=O)c2cccc3ccccc23)c2ccccc21", "tested on": "CNR2 L182I", "assay": "G protein activation, agonist, BRET", "measurement": "EC50", "value": "4.17 nM"}
{"Structure (SMILES)": "CC(C)[C@@H]1NC(=O)[C@H](CCCNC(=N)N)NC(=O)[C@H](Cc2ccc(O)cc2)NC(=O)[C@H](CO)NC(=O)[C@H](Cc2ccc(O)cc2)N(C)C(=O)[C@H](CC(N)=O)NC(=O)CNC(=O)[C@H](Cc2ccc(O)cc2)N(C)C(=O)[C@H](Cc2ccccc2)N(C)C(=O)[C@H](CC(=O)O)NC(=O)[C@H](Cc2ccc(O)cc2)NC(=O)[C@H](Cc2ccccc2)N(C)C(=O)[C@H](Cc2ccc(O)cc2)N(C)C(=O)[C@H](Cc2ccc(O)cc2)NC(=O)CSC[C@@H](C(N)=O)NC(=O)[C@@H]2CCCN2C1=O", "tested on": "gpmI", "assay": "biochemical", "measurement": "AC50", "value": "15.8 nM"}
{"Structure (SMILES)": "C#CCN(Cc1ccc2nc(C)[nH]c(=O)c2c1)c1ccc(C(=O)N[C@@H](CCC(=O)O)C(=O)O)cc1", "tested on": "4'-phosphopantetheinyl transferase PptT", "assay": "enzyme activity, inhibitor, fluorescence polarization", "setting": "enzyme 100 nM", "measurement": "IC50", "value": "50 nM"}
{"Structure (SMILES)": "C[C@@H](NC(=O)[C@@H](CCC(N)=O)NC(=O)[C@@H](C)NC(=O)[C@@H](CCCCN)NC(=O)[C@@H](CCC(N)=O)NC(=O)[C@@H](C)NC(=O)[C@@H](CCCCN)NC(=O)[C@@H](CCC(N)=O)NC(=O)[C@@H](C)NC(=O)[C@@H](CCC(N)=O)NC(=O)[C@@H](CCCCN)NC(=O)[C@@H](C)NC(=O)[C@@H](CCC(N)=O)NC(=O)[C@@H](CCCCN)NC(=O)[C@@H](C)NC(=O)[C@@H](CCC(N)=O)NC(=O)[C@@H](C)NC(=O)[C@@H](CCCCN)NC(=O)[C@@H](CCC(N)=O)NC(=O)[C@@H](C)NC(=O)[C@@H](CCCCN)NC(=O)[C@@H](CO)NC(=O)[C@@H](Cc1ccc(O)cc1)NC(=O)CNC(=O)CNC(=O)CN)C(=O)N[C@H](CCCCN)C(=O)N[C@H](CCC(N)=O)C(=O)N[C@H](C)C(=O)N[C@H](CCCCN)C(=O)N[C@H](CCC(N)=O)C(=O)O", "assay": "binding, SPR two-state model", "test system": "rVλ6Wil fibrils", "setting": "300 nM", "measurement": "kd2", "value": "0.0017 s⁻¹"}
{"Structure (SMILES)": "CC(C)[C@@H]1NC(=O)[C@H](CCCNC(=N)N)NC(=O)[C@H](Cc2ccc(O)cc2)NC(=O)[C@H](CO)NC(=O)[C@H](Cc2ccc(O)cc2)NC(=O)[C@H](CC(N)=O)NC(=O)CNC(=O)[C@H](Cc2ccc(O)cc2)NC(=O)[C@H](Cc2ccccc2)NC(=O)[C@H](CC(=O)O)NC(=O)[C@H](Cc2ccc(O)cc2)NC(=O)[C@H](Cc2ccccc2)NC(=O)[C@H](Cc2ccc(O)cc2)NC(=O)[C@H](Cc2ccc(O)cc2)NC(=O)CSC[C@@H](C(N)=O)NC(=O)[C@@H]2CCCN2C1=O", "tested on": "gpmI", "assay": "biochemical", "measurement": "AC50", "value": "17800 nM"}
{"Structure (SMILES)": "Cc1nc(=O)c2cc(CN(C)c3ccc(C(=O)NCc4nsc(=O)[nH]4)s3)ccc2[nH]1", "tested on": "4'-phosphopantetheinyl transferase PptT", "assay": "enzyme activity, inhibitor, fluorescence polarization", "setting": "enzyme 100 nM", "measurement": "IC50", "value": "80 nM"}
{"Structure (SMILES)": "N=C(N)NCCC[C@@H]1NC(=O)[C@@H](Cc2ccc(O)cc2)NC(=O)CSC[C@@H](C(=O)N2CCC[C@H]2C(=O)N[C@@H](CCCCN)C(=O)N[C@@H](CS)C(N)=O)NC(=O)[C@H](CCC(=O)O)NC(=O)[C@H](Cc2ccc(O)cc2)NC(=O)[C@H](CCCCN)NC(=O)[C@H](Cc2ccc(O)cc2)NC(=O)[C@H](Cc2ccc(O)cc2)NC(=O)[C@H](CCC(=O)O)NC(=O)[C@H](Cc2ccc(O)cc2)NC1=O", "tested on": "2,3-bisphosphoglycerate-independent phosphoglycerate mutase", "assay": "biochemical", "measurement": "AC50", "value": "20400 nM"}
{"Structure (SMILES)": "CCCCCc1cc(O)c2c(c1)OC(C)(C)C1CCC(C)=CC21 (single isomer, unassigned; (-))", "tested on": "CYP2C19 (Homo sapiens, UniProt P33261)", "assay": "enzyme activity, inhibitor", "test system": "human liver microsomes", "setting": "pH 7.4, unbound, fu,inc corrected, with: omeprazole", "measurement": "Ki", "value": "210 ± 82 nM"}
{"Structure (SMILES)": "CN1C(=O)[C@H](Cc2ccc(O)cc2)NC(=O)CNC(=O)[C@H](Cc2ccc(O)cc2)NC(=O)[C@H](CCC(=O)O)NC(=O)[C@H](Cc2ccc(O)cc2)N(C)C(=O)[C@H](Cc2ccc(O)cc2)N(C)C(=O)[C@H](CCC(N)=O)NC(=O)[C@H](Cc2c[nH]c3ccccc23)NC(=O)[C@H](Cc2ccc(O)cc2)NC(=O)[C@@H](Cc2ccc(O)cc2)NC(=O)CSC[C@@H](C(N)=O)NC(=O)[C@H](CCCCN)NC(=O)[C@@H]1Cc1ccc(O)cc1", "tested on": "gpmI", "assay": "biochemical", "measurement": "AC50", "value": "14100 nM"}
{"Structure (SMILES)": "Cc1sc(-n2c(C)c3c(C)nnc(C)c3c2C)nc1-c1ccc(Br)cc1", "tested on": "4'-phosphopantetheinyl transferase PptT", "assay": "enzyme activity, inhibitor, FP", "measurement": "IC50", "value": "350 nM"}
{"Structure (SMILES)": "C[C@@H](O)[C@@H]1NC(=O)[C@H](CC(=O)O)NC(=O)[C@@H]2CCCN2C(=O)[C@H](Cc2ccc(O)cc2)NC(=O)CSC[C@@H](C(N)=O)NC(=O)[C@H](Cc2c[nH]cn2)NC(=O)[C@H](Cc2c[nH]c3ccccc23)NC(=O)[C@H](CCC(=O)O)NC(=O)[C@H](CC(=O)O)NC(=O)[C@H](Cc2ccc(O)cc2)NC(=O)[C@H](Cc2ccc(O)cc2)NC(=O)[C@H](Cc2c[nH]c3ccccc23)NC(=O)[C@H](Cc2c[nH]c3ccccc23)NC(=O)[C@H](CC(N)=O)NC1=O", "tested on": "2,3-bisphosphoglycerate-independent phosphoglycerate mutase", "assay": "biochemical", "measurement": "AC50", "value": "33100 nM"}
{"Structure (SMILES)": "Cc1nc(=O)c2cc(CN(C)c3ccc(C(=O)N[C@@H](CCc4nn[nH]n4)C(=O)O)s3)ccc2[nH]1", "tested on": "4'-phosphopantetheinyl transferase PptT", "assay": "enzyme activity, inhibitor, fluorescence polarization", "setting": "enzyme 100 nM", "measurement": "IC50", "value": "180 nM"}
{"note": "Repeated from above:"}
{"Structure (SMILES)": "Cc1nc(=O)c2cc(CN(C)c3ccc(C(=O)N[C@@H](CCc4nn[nH]n4)C(=O)O)s3)ccc2[nH]1", "tested on": "4'-phosphopantetheinyl transferase PptT", "assay": "enzyme activity, inhibitor, fluorescence polarization", "setting": "enzyme 100 nM", "measurement": "IC50", "value": "180 nM"}
{"Structure (SMILES)": "CCCCCn1cc(C(=O)c2cccc3ccccc23)c2ccccc21", "tested on": "CNR2 L182I", "assay": "G protein activation, agonist, BRET", "measurement": "EC50", "value": "4.17 nM"}
